Measurements gathered from unrelated publications.
Each numbered part is a random draw from the data of one study; scales do not carry over between parts.

Set 1 — method: protein-binding microarray; molecule type: double-stranded DNA, one strand shown; sample: in vitro; tested at: 2200 nM top; setting: 60-bp whole probe; added: salmon DNA 0.4 mg/ml; reference: random background probes; reading: higher = stronger binding
Target: Interferon regulatory factor 7, full length, phosphomimetic (IRF7, Homo sapiens, UniProt Q92985, residues 1-503, S471D/S472D/S475D/S476D/S477D/S483D/S484D/S487D)
Residues (chain): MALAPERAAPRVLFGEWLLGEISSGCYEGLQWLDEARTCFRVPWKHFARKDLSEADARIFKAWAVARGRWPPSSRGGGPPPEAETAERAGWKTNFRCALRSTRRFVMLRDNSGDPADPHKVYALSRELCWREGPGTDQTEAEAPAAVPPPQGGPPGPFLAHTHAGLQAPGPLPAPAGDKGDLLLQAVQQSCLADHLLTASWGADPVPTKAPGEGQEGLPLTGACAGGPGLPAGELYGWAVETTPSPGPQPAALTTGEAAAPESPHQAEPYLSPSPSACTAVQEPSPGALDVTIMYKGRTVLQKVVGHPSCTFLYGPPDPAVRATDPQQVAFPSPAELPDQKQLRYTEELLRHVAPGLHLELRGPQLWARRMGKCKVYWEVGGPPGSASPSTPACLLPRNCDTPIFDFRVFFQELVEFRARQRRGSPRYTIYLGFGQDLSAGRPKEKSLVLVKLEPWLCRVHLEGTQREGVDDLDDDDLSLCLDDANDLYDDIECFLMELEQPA
`GCCTAGCACTTAGAACTGCTACTGCTTTAGTGCTAGGTCTTGATTCGCTTGACGCTGCTG`: “fitted relative affinity” -0.349 z-score.
`GCCTAGCACGATGAAGATGTAGAACTTTTGTGCTAGGTCTTGATTCGCTTGACGCTGCTG` — result for “fitted relative affinity”: -0.431 z-score.
`GCCTAGCACTCACTTTACACACATCATCTTGTGCTAGTCTTGATTCGCTTGACGCTGCTG`: “fitted relative affinity” 2.76 z-score.
`GCCTAGCACTTAGGTATCCTTTTCCTTTGGTGCTAGGTCTTGATTCGCTTGACGCTGCTG` — result for “fitted relative affinity”: 1.81 z-score.

Set 2 — method: RNAcompete; molecule type: RNA; sample: in vitro; tested at: 20 nM; setting: 7-mer, probes averaged, single round; reference: mean of 7-mers; reading: higher = stronger binding
Target: PABPC1L2, full length, GST fusion (mouse, UniProt A0ABA7IW68)
Residues (chain): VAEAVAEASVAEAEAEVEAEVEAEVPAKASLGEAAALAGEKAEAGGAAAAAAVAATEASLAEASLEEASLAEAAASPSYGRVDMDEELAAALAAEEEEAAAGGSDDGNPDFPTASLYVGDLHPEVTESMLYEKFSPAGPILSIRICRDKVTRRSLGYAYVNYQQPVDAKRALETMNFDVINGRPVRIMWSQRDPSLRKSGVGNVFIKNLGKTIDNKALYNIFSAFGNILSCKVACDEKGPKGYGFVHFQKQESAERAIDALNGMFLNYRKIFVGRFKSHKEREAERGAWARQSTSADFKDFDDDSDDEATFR
With `CGUUCUC` the 7-mer Z-score was -0.505.
`ACGACCG` gave a 7-mer Z-score of -0.0844.
`CUCGUUU` has a 7-mer Z-score of -0.436.

Set 3 — method: RNA Bind-n-Seq; molecule type: RNA; sample: in vitro; tested at: 365 nM; reference: no-protein control; reading: higher = stronger binding
Target: RNA binding protein fox-1 homolog 2, RRM domain, GST-SBP tag (RBFOX2, Homo sapiens, UniProt O43251-10, residues 100-194)
Setting: natural RNA segment, single round, ends assumed
For `GGGAGUUCUACAGUCCGACGAUCUCCCACGAAGGCCAGACGCUGAUUUUAUUUUCUCAUUUCCACAGAUUGACAAGGAUAAGUCAGUUGUUUGUAAACUCUAGGUAGCAGAUGAGAAAUAAUUCACUUAAUAUUGGAAUUCUCGGGUGCCAA`, “RBNS enrichment (R)” read 0.512.
Under “RBNS enrichment (R)”, `GGGAGUUCUACAGUCCGACGAUCAGGGCUGAGCCUUCUCUUCUGUCUGCAGCCACAAUAGGCUUCCUCAGACGCUGGCUUGAGAGGAGCCCCGCACCUUGGGCACCAGGGAGUGCCAUCCGCCUCCCAGUCCGUGGAAUUCUCGGGUGCCAA` is recorded as 0.488.
Under “RBNS enrichment (R)”, `GGGAGUUCUACAGUCCGACGAUCUUUCUAGCAAAACAUGUUUUUAACCAUCAGUGCUCAAUUGCAUUUUCUUCCUUUCGCAGCCAGUCAGUCUUUCAAACUAUUGACAGUAAGAUAAUUCUCACGUUCACACCUGGAAUUCUCGGGUGCCAA` is recorded as 0.966.
`GGGAGUUCUACAGUCCGACGAUCGUCUCAGUGUUAUUAAUGAGAAAAAGUUCUGUCAUUCAGGAAAAAAAAGCAAAAAACGUGAGGUUGGGACUCAGUAGGUGAGGGUGCUUGCAGCCAAACCUGAUGACCUGUGGAAUUCUCGGGUGCCAA`: “RBNS enrichment (R)” 0.414.

Other studies, line by line
The fold induction of `PhoQ, residues 284 288 289 292 302 303 SASVAL` is reported as 12 (PhoP, residues 12 14 15 18 19 SEGLL (Escherichia coli, UniProt P23836); Sort-seq, refers to: YFP reporter; E. coli; PhoQ-PhoP variant library, added: 10 µM Mg2+; reference: high Mg2+ state, higher = stronger signaling).

A few entries again (set 2):
`CUCGUUU` has a 7-mer Z-score of -0.436.
